Published values from different studies.
Compare with care: the assays were run in different laboratories.
B1: aqpZ 1-231 C20S/W14A/G144F (Escherichia coli, UniProt P60844); chain MFRKLAAECFGTFALVFGGSGSAVLAAGFPELGIGFAGVALAFGLTVLTMAFAVGHISGGHFNPAVTIGLWAGGRFPAKEVVGYVIAQVVGGIVAAALLYLIASGKTGFDAAASGFASNGYGEHSPGGYSMLSALVVELVLSAFFLLVIHGATDKFAPAGFAPIAIGLALTLIHLISIPVTNTSVNPARSTAVAIFQGGWALEQLWFFWVVPIVGGIIGGLIYRTLLEKRD
B2: IRF3 189-427 (Homo sapiens, UniProt Q14653); phosphorylated by TBK1; sequence looked up; chain ENPLKRLLVPGEEWEFEVTAFYRGRQVFQQTISCPEGLRLVGSEVGDRTLPGWPVTLPDPGMSLTDRGVMSYVRHVLSCLGGGLALWRAGQWLWAQRLGHCHTYWAVSEELLPNSGHGPDGEVPKDKEGGVFDLGPFIVDLITFTEGSGRSPRYALWFCVGESWPQDQPWTKRLVMVKVVPTCLRALVEMARVGGASSLENTVDLHISNSHPLSLTSDQYKAYLQDLVEGMDFQGPGES
B3: DCAF1 817-1507 (Homo sapiens, UniProt Q9Y4B6); sequence looked up; chain SGKPLLIGTDVSLARLQKADVVAQSRISFPEKELLLLIRNHLISKGLGETATVLTKEADLPMTAASHSSAFTPVTAAASPVSLPRTPRIANGIATRLGSHAAVGASAPSAPTAHPQPRPPQGPLALPGPSYAGNSPLIGRISFIRERPSPCNGRKIRVLRQKSDHGAYSQSPAIKKQLDRHLPSPPTLDSIITEYLREQHARCKNPVATCPPFSLFTPHQCPEPKQRRQAPINFTSRLNRRASFPKYGGVDGGCFDRHLIFSRFRPISVFREANEDESGFTCCAFSARERFLMLGTCTGQLKLYNVFSGQEEASYNCHNSAITHLEPSRDGSLLLTSATWSQPLSALWGMKSVFDMKHSFTEDHYVEFSKHSQDRVIGTKGDIAHIYDIQTGNKLLTLFNPDLANNYKRNCATFNPTDDLVLNDGVLWDVRSAQAIHKFDKFNMNISGVFHPNGLEVIINTEIWDLRTFHLLHTVPALDQCRVVFNHTGTVMYGAMLQADDEDDLMEERMKSPFGSSFRTFNATDYKPIATIDVKRNIFDLCTDTKDCYLAVIENQGSMDALNMDTVCRLYEVGRQRLAEDEDEEEDQEEEEQEEEDDDEDDDDTDDLDELDTDQLLEAELEEDDNNENAGEDGDNDFSPSDEELANLLEEGEDGEDEDSDADEEVELILGDTDSSDNSDLEDDIILSLNE
B4: ITGB4 1126-1752 (Homo sapiens, UniProt P16144-2); sequence looked up; chain DLGAPQNPNAKAAGSRKIHFNWLPPSGKPMGYRVKYWIQGDSESEAHLLDSKVPSVELTNLYPYCDYEMKVCAYGAQGEGPYSSLVSCRTHQEVPSEPGRLAFNVVSSTVTQLSWAEPAETNGEITAYEVCYGLVNDDNRPIGPMKKVLVDNPKNRMLLIENLRESQPYRYTVKARNGAGWGPEREAIINLATQPKRPMSIPIIPDIPIVDAQSGEDYDSFLMYSDDVLRSPSGSQRPSVSDDTEHLVNGRMDFAFPGSTNSLHRMTTTSAAAYGTHLSPHVPHRVLSTSSTLTRDYNSLTRSEHSHSTTLPRDYSTLTSVSSHDSRLTAGVPDTPTRLVFSALGPTSLRVSWQEPRCERPLQGYSVEYQLLNGGELHRLNIPNPAQTSVVVEDLLPNHSYVFRVRAQSQEGWGREREGVITIESQVHPQSPLCPLPGSAFTLSTPSAPGPLVFTALSPDSLQLSWERPRRPNGDIVGYLVTCEMAQGGGPATAFRVDGDSPESRLTVPGLSENVPYKFKVQARTTEGFGPEREGIITIESQDGGPFPQLGSRAGLFQHPLQSEYSSITTTHTSATEPFLVDGLTLGAQHLEAGGSLTRHVTQEFVSRTLTTSGTLSTHMDQQFFQT
B5: Il2/Il2ra IL-2 fused to CD25 ectodomain (Mus musculus); chain APTSSSTSSSTAEAQQQQQQQQQQQQHLEQLLMDLQELLSRMENYRNLKLPRMLTFKFYLPKQATELKDLQCLEDELGPLRHVLDLTQSKSFQLEDAENFISNIRVTVVKLKGSDNTFECQFDDESATVVDFLRRWIAFCQSIISTSPQGGGSGGGSGGGSELCLYDPPEVPNATFKALSYKNGTILNCECKRGFRRLKELVYMRCLGNSWSSNCQCTSNSHDKSRKQVTAQLEHQKEQQTTTDMQKPTQSMHQENLTGHCREPPPWKHEDSKRIYHFVEGQSVHYECIPGYKALQRGPAISICKMKCGKTGWTQPQLTCVDEREHHRFLASEESQGSRNSSPESETSCPITTTDFPQPTETTAMTETFVLTMEYKGG
B6: UGT1A9 (Homo sapiens, UniProt O60656); chain GKLLVVPMDGSHWFTMRSVVEKLILRGHEVVVVMPEVSWQLGRSLNCTVKTYSTSYTLEDLDREFKAFAHAQWKAQVRSIYSLLMGSYNDIFDLFFSNCRSLFKDKKLVEYLKESSFDAVFLDPFDNCGLIVAKYFSLPSVVFARGILCHYLEEGAQCPAPLSYVPRILLGFSDAMTFKERVRNHIMHLEEHLLCHRFFKNALEIASEILQTPVTEYDLYSHTSIWLLRTDFVLDYPKPVMPNMIFIGGINCHQGKPLPMEFEAYINASGEHGIVVFSLGSMVSEIPEKKAMAIADALGKIPQTVLWRYTGTRPSNLANNTILVKWLPQNDLLGHPMTRAFITHAGSHGVYESICNGVPMVMMPLFGDQMDNAKRMETKGAGVTLNVLEMTSEDLENALKAVINDKSYKENIMRLSSLHKDRPVEPLDLAVFWVEFVMRHKGAPHLRPAAHDLTWYQYHSLDVIGFLLAVVLTVAFITFKCCAYGYRKCLGKKGRVKKAHKSKTH
B7: Ern1 499-977 N772Y (Mus musculus, UniProt Q9EQY0); sequence looked up; chain HPHGDLTQDPEFLDSSGPFSESSGTSSPSPSPRASNHSLHPSSSASRAGTSPSLEQDDEDEETRMVIVGKISFCPKDVLGHGAEGTIVYKGMFDNRDVAVKRILPECFSFADREVQLLRESDEHPNVIRYFCTEKDRQFQYIAIELCAATLQEYVEQKDFAHLGLEPITLLHQTTSGLAHLHSLNIVHRDLKPHNILLSMPNAHGRIKAMISDFGLCKKLAVGRHSFSRRSGVPGTEGWIAPEMLSEDCKDNPTYTVDIFSAGCVFYYVISEGYHPFGKSLQRQANILLGACNLDCFHSDKHEDVIARELIEKMIAMDPQQRPSAKHVLKHPFFWSLEKQLQFFQDVSDRIEKEALDGPIVRQLERGGRAVVKMDWRENITVPLQTDLRKFRTYKGGSVRDLLRAMRNKKHHYRELPVEVQETLGSIPDDFVRYFTSRFPHLLSHTYQAMELCRHERLFQTYYWHEPTEPQPPVIPYAL
B8: aqpZ 1-231 C20S (Escherichia coli, UniProt P60844); chain MFRKLAAECFGTFWLVFGGSGSAVLAAGFPELGIGFAGVALAFGLTVLTMAFAVGHISGGHFNPAVTIGLWAGGRFPAKEVVGYVIAQVVGGIVAAALLYLIASGKTGFDAAASGFASNGYGEHSPGGYSMLSALVVELVLSAGFLLVIHGATDKFAPAGFAPIAIGLALTLIHLISIPVTNTSVNPARSTAVAIFQGGWALEQLWFFWVVPIVGGIIGGLIYRTLLEKRD

Substance | tested on | test | system | conditions | how to read | quantity | value
B1 (aqpZ 1-231 C20S/W14A/G144F) | itself | light scattering | proteoliposomes | hyperosmotic shock | – | channel permeability | 9.5e-14 cm^3 s^–1
B2 (IRF3 189-427) | itself | SEC | – | – | – | binding | binds
B3 (DCAF1 817-1507) | itself | in vitro ubiquitination | – | – | reference: monomeric complex, higher = more ubiquitination | ubiquitination of UNG2 | > 2 fold
CRYAA R21W (Homo sapiens) (sequence not shown) | itself | SEC-MALS | – | – | – | binding | binds
B4 (ITGB4 1126-1752) | itself | time-resolved fluorometry overlay assay | – | NaCl 500 mM | reference: lower NaCl binding, higher = more binding | relative binding | 5 fold
CRYAA R116H (Homo sapiens) (sequence not shown) | itself | SEC-MALS | – | – | – | binding | binds
B5 | itself | pSTAT5 | mouse splenic Tregs | 15 min | reference: mIL-2, higher = stronger signaling | pSTAT5 induction | 555 fold
B6 (UGT1A9) | COc1ccc2c(=O)c(O)c(-c3ccccc3)oc2c1 | steady-state kinetics | – | pH 7.4, 37 °C | – | Km | 0.27 µM
B7 (Ern1 499-977 N772Y) | itself | AUC | – | together with: ADP 500 µM | – | binding | binds
B8 (aqpZ 1-231 C20S) | itself | light scattering | proteoliposomes | hyperosmotic shock | – | channel permeability | 1.13e-13 cm^3 s^–1

Some of these lines once more:
Substance | tested on | test | system | conditions | how to read | quantity | value
B7 (Ern1 499-977 N772Y) | itself | AUC | – | together with: ADP 500 µM | – | binding | binds
